Published values pooled from the literature.
Compare with care: the assays were run in different laboratories. ± gives the spread as reported.

The tissue uptake of `CCCC[C@H](NC(=O)CNC(=O)CNC(=O)c1ccc(NN)nc1)C(=O)N[C@H]1CC(=O)NCCCC[C@@H](C(N)=O)NC(=O)[C@H](Cc2c[nH]c3ccccc23)NC(=O)[C@H](CCCNC(=N)N)NC(=O)[C@@H](Cc2ccccc2)NC(=O)[C@H](Cc2c[nH]cn2)NC1=O` [technetium-99m labelled] is reported as 0.09 ± 0.01 %ID/g (C57 mouse, B16/F1 melanoma-bearing, lung; intravenous, 24 h).
For `N=C(N)NCCC[C@@H]1NC(=O)[C@H](CCCCNC(=O)CCOCCOCCOCCOCCNC(=O)CC[C@H](NC(=O)CCOCCOCCOCCOCCNC(=O)CC[C@H](NC(=O)CN2CCN(CC(=O)O)CCN(CC(=O)O)CCN(CC(=O)O)CC2)C(=O)NCCOCCOCCOCCOCCC(=O)N[C@@H](CCC(=O)NCCOCCOCCOCCOCCC(=O)NCCCC[C@@H]2NC(=O)[C@@H](Cc3ccccc3)NC(=O)[C@H](CC(=O)O)NC(=O)CNC(=O)[C@H](CCCNC(=N)N)NC2=O)C(=O)NCCOCCOCCOCCOCCC(=O)NCCCC[C@@H]2NC(=O)[C@@H](Cc3ccccc3)NC(=O)[C@H](CC(=O)O)NC(=O)CNC(=O)[C@H](CCCNC(=N)N)NC2=O)C(=O)NCCOCCOCCOCCOCCC(=O)NCCCC[C@@H]2NC(=O)[C@@H](Cc3ccccc3)NC(=O)[C@H](CC(=O)O)NC(=O)CNC(=O)[C@H](CCCNC(=N)N)NC2=O)NC(=O)[C@@H](Cc2ccccc2)NC(=O)[C@H](CC(=O)O)NC(=O)CNC1=O` [indium-111 labelled], the tissue uptake was 0.44 ± 0.04 %ID/g (female athymic nude mice, heart; intravenous, 3 µCi, 4 h, U-87 MG glioma xenograft).
`CCCC[C@H](NC(=O)COCCOCCNC(=O)c1ccc(NN)nc1)C(=O)N[C@H]1CC(=O)NCCCC[C@@H](C(N)=O)NC(=O)[C@H](Cc2c[nH]c3ccccc23)NC(=O)[C@H](CCCNC(=N)N)NC(=O)[C@@H](Cc2ccccc2)NC(=O)[C@H](Cc2c[nH]cn2)NC1=O` [technetium-99m labelled] has a tissue uptake of 0.27 ± 0.12 %ID/g (C57 mouse, female, B16/F1 melanoma, lung; intravenous, 0.037 MBq, 2 h).
The tissue uptake of `N=C(N)NCCC[C@@H]1NC(=O)[C@H](CCCCNC(=O)CC[C@H](NC(=O)CCOCCOCCOCCOCCNC(=O)CC[C@H](NC(=O)CN2CCN(CC(=O)O)CCN(CC(=O)O)CCN(CC(=O)O)CC2)C(=O)NCCOCCOCCOCCOCCC(=O)N[C@@H](CCC(=O)NCCCC[C@@H]2NC(=O)[C@@H](Cc3ccccc3)NC(=O)[C@H](CC(=O)O)NC(=O)CNC(=O)[C@H](CCCNC(=N)N)NC2=O)C(=O)NCCCC[C@@H]2NC(=O)[C@@H](Cc3ccccc3)NC(=O)[C@H](CC(=O)O)NC(=O)CNC(=O)[C@H](CCCNC(=N)N)NC2=O)C(=O)NCCCC[C@@H]2NC(=O)[C@@H](Cc3ccccc3)NC(=O)[C@H](CC(=O)O)NC(=O)CNC(=O)[C@H](CCCNC(=N)N)NC2=O)NC(=O)[C@@H](Cc2ccccc2)NC(=O)[C@H](CC(=O)O)NC(=O)CNC1=O` [indium-111 labelled] is reported as 2.36 ± 0.96 %ID/g (female athymic nude mice, spleen; intravenous, 3 µCi, 0.5 h, U-87 MG glioma xenograft).
With `CCCC[C@H](NC(=O)CCCCCCCNC(=O)c1ccc(NN)nc1)C(=O)N[C@H]1CC(=O)NCCCC[C@@H](C(N)=O)NC(=O)[C@H](Cc2c[nH]c3ccccc23)NC(=O)[C@H](CCCNC(=N)N)NC(=O)[C@@H](Cc2ccccc2)NC(=O)[C@H](Cc2c[nH]cn2)NC1=O` [technetium-99m labelled] the tissue uptake was 0.97 ± 0.36 %ID/g (C57 mouse, B16/F1 melanoma, stomach; 2 h, with: L-lysine 12 mg co-injected).
With `CSCC[C@H](NC(=O)[C@H](CC(C)C)NC(=O)[C@H](Cc1c[nH]cn1)NC(=O)CNC(=O)[C@@H](NC(=O)[C@H](C)NC(=O)[C@H](Cc1c[nH]c2ccccc12)NC(=O)[C@H](CCC(N)=O)NC(=O)CCCCCCCNC(=O)CCC(=O)Nc1ccc(CNC23CNCCNCC(N)(CNCCNC2)CNCCNC3)cc1)C(C)C)C(N)=O` [copper-64 labelled] the tissue uptake was 0.923 ± 0.274 %ID/g (female SCID mice, PC-3 xenograft, muscle; intravenous, 0.6 MBq, 1 h).
With `CSCC[C@H](NC(=O)[C@H](CC(C)C)NC(=O)[C@H](Cc1c[nH]cn1)NC(=O)CNC(=O)[C@@H](NC(=O)[C@H](C)NC(=O)[C@H](Cc1c[nH]c2ccccc12)NC(=O)[C@H](CCC(N)=O)NC(=O)CCCCCNC(=O)CNC(=O)CNC(=O)CNC(=O)CSC(C)=O)C(C)C)C(N)=O` [technetium-99m labelled] the tissue uptake was 0.98 ± 0.29 %ID/g (nude mouse, PC-3 xenograft, blood; 30 min, with: excess unlabelled conjugate).
`N=C(N)NCCC[C@@H]1NC(=O)[C@H](CCCCNC(=O)CCOCCOCCOCCOCCNC(=O)CN2CCN(CC(=O)O)CCN(CC(=O)O)CCN(CC(=O)O)CC2)NC(=O)[C@@H](Cc2ccccc2)NC(=O)[C@H](CC(=O)O)NC(=O)CNC1=O` [indium-111 labelled] gave a tissue uptake of 0.02 ± 0.01 %ID/g (female athymic nude mice, blood; intravenous, 3 µCi, 72 h, U-87 MG glioma xenograft).
`N=C(N)NCCC[C@@H]1NC(=O)[C@H](CC(=O)NC23CNCCNCC(N)(CNCCNC2)CNCCNC3)NC(=O)[C@@H](Cc2ccccc2)NC(=O)[C@H](CC(=O)O)NC(=O)CNC1=O` [copper-64 labelled] has a tissue uptake of 0.6 ± 0.31 %ID/g (Nu/Nu mouse, male, tumour-bearing, blood; intravenous, 10 µCi, 1 h).
